Assay results from different studies.
Numbered parts are unrelated; each lists some results of a single study. Positions count from the first letter of the parent shown.

Study 1 — technique: RNA Bind-n-Seq; form: RNA; sample: in vitro; tested at: not given; reference: input RNA pool; reading: higher = stronger binding
Target: RING finger protein unkempt homolog, zinc fingers 1-6, GST-SBP tag (UNK, Homo sapiens, UniProt Q9C0B0, residues 30-357)
Chain of UniProt Q9C0B0 (30-357, looked up): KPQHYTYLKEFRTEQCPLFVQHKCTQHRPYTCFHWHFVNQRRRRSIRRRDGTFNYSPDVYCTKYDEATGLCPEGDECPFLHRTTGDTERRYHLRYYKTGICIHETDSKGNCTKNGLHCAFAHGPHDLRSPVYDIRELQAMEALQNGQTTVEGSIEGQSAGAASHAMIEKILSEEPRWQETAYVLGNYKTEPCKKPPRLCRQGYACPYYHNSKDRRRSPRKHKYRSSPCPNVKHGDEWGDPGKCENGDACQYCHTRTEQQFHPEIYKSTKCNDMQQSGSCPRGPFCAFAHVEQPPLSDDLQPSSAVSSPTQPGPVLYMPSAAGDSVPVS
Notes: RNA with constant flanks, human-mouse chimeric sites, ends assumed
For `GGGAGUUCUACAGUCCGACGAUCUCGGAUGCUGUGCUGGGUCACUUUUCAUAUCCUGAUCCUUCACAGUGGACAGAUGAAGAACUGGGAAUCCCUCCUGAUGAUGAAGACUGACACUGUAAACUCUCUGGACGAGUAGGAGCACAACAGAGGAUUGAGCAUCA`, the bound/input enrichment was 0.41 ratio.
The bound/input enrichment of `GGGAGUUCUACAGUCCGACGAUCAUAGAUGAAAUUGAUGUGGACCAGGAAGGAAUUGCUGAAAUGAUCCUGGAUGAAAAUGCUAUUGCUCAGGUCCCACGCCCUGGCACAUCUUUGAAGCUCCCUGGAACUAAUCAGACAGGACAACAGAGGAUUGAGCAUCA` is reported as 0.29 ratio.
The bound/input enrichment of `GGGAGUUCUACAGUCCGACGAUCAAUUUCCUGUCAUACUUUUUAGACAUUCACAUCAGACUUACAGAGCACCUGGCCACAUUCUAGGUUUGAAUUAUUUCUCAGCUAUGGAUAUGAUCAAAUGAGAACACUGCUUAACUAAUGCAACAGAGGAUUGAGCAUCA` is reported as 0.769 ratio.
For `GGGAGUUCUACAGUCCGACGAUCACAGUUAUACACUGUUGUUUCAUUUUCAUAUAUUCUUAUGGUGUCUGCUUGCCUGUGACUUCUGGUAAAAUAAAAUAAGCCUUUGAAAAUAUUUUAGCAUGGUAUUUAACAUUUUCUAAACAACAGAGGAUUGAGCAUCA`, the bound/input enrichment was 1.37 ratio.

Study 2 — technique: DHFR PCA, deep sequencing; sample: yeast; together with: (+)-ABA 17 µM; reference: wild-type fitted maximum; reading: higher = stronger binding
Target: ABI1, truncated, D143A, DHFR fusion (Arabidopsis thaliana)
Notes: methotrexate growth selection, single substitutions
Parent: PYL1, truncated, DHFR fusion (Arabidopsis thaliana); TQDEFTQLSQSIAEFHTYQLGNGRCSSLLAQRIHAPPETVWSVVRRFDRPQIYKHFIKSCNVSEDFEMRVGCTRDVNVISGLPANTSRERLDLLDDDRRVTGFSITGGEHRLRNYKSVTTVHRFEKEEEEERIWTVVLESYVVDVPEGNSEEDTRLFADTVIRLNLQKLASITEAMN
Under “relative binding score”, `A13M` is recorded as 71.6%.
For `G81R`, “relative binding score” read -5.51%.
`D144A` — result for “relative binding score”: 27.8%.
Under “relative binding score”, `C60G` is recorded as -0.767%.
`A158D`: “relative binding score” -10.5%.
Under “relative binding score”, `F66P` is recorded as 46.5%.
`S117F` — result for “relative binding score”: 0.28%.
For `A175E`, “relative binding score” read 90.9%.
Under “relative binding score”, `L156V` is recorded as 84.1%.
Under “relative binding score”, `N22K` is recorded as 87%.
`N77L`: “relative binding score” 78.7%.
`D159A`: “relative binding score” 19.4%.
Under “relative binding score”, `I172T` is recorded as 65%.
For `R99Y`, “relative binding score” read 103%.

Study 3 — technique: universal PBM; form: double-stranded DNA, one strand shown; sample: in vitro; tested at: not given; reading: higher = stronger binding
Target: Sal-like protein 4, full length isoform B (SALL4, Homo sapiens, UniProt Q9UJQ4-2, residues 1-616)
Notes: 8-mer, flanks averaged, mean of replicates
Target sequence (chain): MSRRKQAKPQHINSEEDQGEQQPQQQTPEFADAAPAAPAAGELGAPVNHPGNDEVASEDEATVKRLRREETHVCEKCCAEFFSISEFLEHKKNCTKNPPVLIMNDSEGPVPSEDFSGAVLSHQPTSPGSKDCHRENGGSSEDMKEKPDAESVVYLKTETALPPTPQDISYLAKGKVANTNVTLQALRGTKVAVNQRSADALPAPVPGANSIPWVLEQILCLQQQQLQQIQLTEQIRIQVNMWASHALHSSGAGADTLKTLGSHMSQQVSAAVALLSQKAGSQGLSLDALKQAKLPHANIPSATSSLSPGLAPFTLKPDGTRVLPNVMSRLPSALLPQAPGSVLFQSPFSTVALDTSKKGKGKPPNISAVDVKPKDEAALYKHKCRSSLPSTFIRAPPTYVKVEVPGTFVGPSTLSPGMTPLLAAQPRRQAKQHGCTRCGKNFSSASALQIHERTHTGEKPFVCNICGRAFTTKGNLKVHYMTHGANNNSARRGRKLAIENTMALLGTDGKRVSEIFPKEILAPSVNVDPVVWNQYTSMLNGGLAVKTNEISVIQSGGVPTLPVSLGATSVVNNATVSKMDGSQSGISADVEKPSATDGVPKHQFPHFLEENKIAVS
The E-score of `CTTCAGGC` is reported as -0.201.
For `GTCTCATA`, the E-score was 0.215.
`ACCACACT` gave an E-score of -0.00972.
For `CGCTCGTC`, the E-score was -0.195.
For `GAACCGAA`, the E-score was 0.0411.
The E-score of `GAGCAACA` is reported as -0.105.
`AGCGCGAA` gave an E-score of -0.142.
`ACGGGGTA` has an E-score of -0.322.
For `ACGACTTC`, the E-score was -0.0677.
For `CCCGTACA`, the E-score was -0.177.
`ATACTTAC` has an E-score of 0.232.
`GACCTCTA` has an E-score of -0.199.

Study 4 — technique: protein binding microarray; form: double-stranded DNA, one strand shown; sample: in vitro; tested at: not given; reference: not given; reading: higher = stronger binding
Target: Histone acetyltransferase KAT6A, winged helix 2, GST fusion (KAT6A, Homo sapiens, UniProt Q92794, residues 85-181)
Notes: 8-mer, flanks averaged, mean of 2 arrays, mostly near background
Target sequence (chain): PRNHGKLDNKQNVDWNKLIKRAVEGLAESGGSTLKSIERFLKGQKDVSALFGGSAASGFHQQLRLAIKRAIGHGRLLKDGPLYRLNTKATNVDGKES
For `ATAAAGCA`, the E-score was 0.0212.
With `TGCATGCA` the E-score was 0.218.
For `CCGCCTAC`, the E-score was 0.155.
`GAGTACTC` has an E-score of 0.123.
With `ACGGGGGC` the E-score was 0.0607.
With `CATGTGTC` the E-score was -0.158.
The E-score of `ACCGGAAA` is reported as -0.0619.
For `ACAGGTTC`, the E-score was -0.0976.
`CCCGAGGG` has an E-score of 0.204.
The E-score of `ATTCGGGG` is reported as 0.11.
The E-score of `ATACTTTA` is reported as -0.0865.

For quick reference, copied from above (study 2):
Under “relative binding score”, `N22K` is recorded as 87%.
`N77L`: “relative binding score” 78.7%.
`D159A`: “relative binding score” 19.4%.
Under “relative binding score”, `I172T` is recorded as 65%.
